Published values of several laboratories.
Each line is one published result; not all experiments were run side by side. ± gives the spread as reported.

`CC(C)NCC(O)c1ccc(O)c(O)c1` (centres unmarked) — result for “minimum effective concentration”: < 0.0001 µM (hiPSC cardiac tissues 3D; active force; 15 min per concentration, paced at 1 Hz serum-free).
`O=C(/C=C/c1ccccc1Cl)NO` has a LysoTracker signal of 1.5 ± 0.24 (SK-N-BE(2)-C; flow cytometry; 5.0 µM, unit not given; relative to: control).
`Cc1ccc(C(C)C)cc1.[Cl-].[Cl][Ru+].[Ru+].c1ccc(-c2cn(CCCCOc3ccccc3-c3nc4ccccc4s3)nn2)nc1`: “cells in phase” 0.08% (MCF7; PI flow cytometry, refers to: sub-G0 phase; 8 µM, 24 h).
`CCc1cccc(CC)c1NC(=O)c1nn(C)c2c1CCc1cnc(Nc3ccc(N4CCN(C)CC4)cc3OC)nc1-2` — result for “concentration for checkpoint override”: 100 nM (HeLa H2B-YFP; mitotic checkpoint, live cell imaging; added: nocodazole).
`COc1cc(CNC(=O)C[C@H](C)CCC=C(C)C)ccc1OCc1cn(-c2cccc(C(F)(F)F)c2)nn1` has a growth percent of 27.1% (SN12C; SRB; 10 µM, 48 h).
For `CC(=C(c1ccc(O)cc1)c1ccc(Cl)cc1)c1ccc(Cl)cc1`, “alkaline phosphatase activity” read 3.76 ± 1.41 (Ishikawa; 1 µM, 72 h, unit not given; relative to: DMSO).
`C(=C/c1ccccc1)/c1ccccc1`: “lowest effective concentration” 2 µM (KG-1a; cell proliferation, ATP luminescence; 24 h; relative to: vehicle).
For `COc1ccc(CN2C(=O)C(=O)c3cc(NC(C)=O)ccc32)cc1`, Bcl-2/Bax ratio read “decreased” (K562; western blot; 1 to 10 µM, 24 h).
Under “earliest phosphorylation time”, `Cc1sc2c(c1C)C(c1ccc(Cl)cc1)=N[C@@H](CC(=O)NCCCCCCCCC(=O)N1CCN(C(=O)c3cc(Cc4n[nH]c(=O)c5ccccc45)ccc3F)CC1)c1nnc(C)n1-2` is recorded as 30 min (SU-DHL-5; Western blot, refers to: ATM, ATR, CHK1, CHK2; 200 nM).
`CO[C@H]1N(OC)c2ccccc2[C@@]12CN=C(Nc1cc(C(F)(F)F)cc(C(F)(F)F)c1)S2` (relative stereo): “G2/M phase cells” 6.22 ± 1.45% (HCT-116; PI flow cytometry; 40 µM, 48 h).
For `O=C(Nc1ccc(C(F)(F)F)cc1Cl)c1cc(Cl)ccc1O`, cell growth read “decreased” (DU-145 (AR-negative); concentration not given, 3 days, dose-dependent).
For `Cc1cc(C)cc(/C=N/NC(=N)N/N=C/c2cc(C)cc(C)c2)c1`, the selectivity ratio was 3.4 (PANC-1; crystal violet; 72 h; relative to: IC50 IMR-90 over IC50 PANC-1).
`Cc1nc(C)c(C=[N+]([O-])C(C)(C)C)nc1C`: “increase in protein level” 101% (primary rat midbrain neurons; Western blot, refers to: SIRT1; 300 µM, added: 20 µM MPP+).
`COc1cc(CNC(=O)C[C@H](C)CCC=C(C)C)ccc1OCc1cn(-c2ccc(Br)cc2)nn1` gave a growth percent of 99.6% (NCI-H322M; SRB; 10 µM, 48 h).
The growth of `CC(=O)OC[C@H]1O[C@@H](Sc2sc(C(=O)c3ccc(C)cc3)c(N)c2-c2nc3ccccc3s2)[C@H](OC(C)=O)[C@@H](OC(C)=O)[C@H]1OC(C)=O` is reported as 83.7% (HOP-92; SRB; 10 µM, 48 h; relative to: untreated).
The GI50 of `CC(Cc1ccc(Cl)cc1)=C(c1ccc(Cl)cc1)c1ccc(OCCN(C)C)cc1` is reported as 1620 nM (HOP-92; cell growth or viability, SRB).
With `COc1cc(CNC(=O)C[C@H](C)CCC=C(C)C)ccc1OCc1cn(-c2ccc(Cl)cc2Cl)nn1` the growth percent was -3.27% (HOP-92; SRB; 10 µM, 48 h).
For `CCCC[C@H](NC(=O)[C@H](Cc1ccccc1)NC(=O)[C@H](Cc1c[nH]cn1)NC(=O)CCNC(=O)[C@@H](NC(=O)[C@H](C)NC(=O)[C@H](Cc1c[nH]c2ccccc12)NC(=O)[C@H](CCC(N)=O)NC(=O)[C@H](N)Cc1ccc(O)cc1)C(C)C)C(N)=O`, the cell growth was 90 ± 5% (Balb/3T3; MTT; 10 nM, 16 h).
For `Cc1c(C)n(-c2c(C(C)C)cccc2C(C)C)c(=[Se])n1-c1c(C(C)C)cccc1C(C)C.[Cl][Au]`, the resistance factor was 0.6 (A2780 ADR; MTT; relative to: A2780 ADR over A2780).
`CCC(=C(c1ccc(Cl)cc1)c1ccc(OCCN(CC)CC)cc1)c1ccc(OC)cc1` — result for “alkaline phosphatase activity”: 0 (Ishikawa; 10 µM, 72 h, unit not given; relative to: DMSO).
With `CC(C)c1cccc(C(C)C)c1-n1c(Cl)c(Cl)n(-c2c(C(C)C)cccc2C(C)C)c1=[Se].[Cl][Au]` the resistance factor was 0.5 (A2780 ADR; MTT; relative to: A2780 ADR over A2780).
`CC(C)Cc1ccc(C(C)C(=O)[O][Pt]([NH2])([NH2])([Cl])([Cl])[O]C(=O)CCCc2ccccc2)cc1` (centres unmarked): “depolarised mitochondria cells” 25 to 30% (PSN1; 1 µM, 24 h).
With `N=C(N/N=C/c1ccc[nH]1)N/N=C/c1ccc[nH]1` the selectivity ratio was 5.3 (PANC-1; crystal violet; 72 h; relative to: IC50 IMR-90 over IC50 PANC-1).
For `COc1cc(CNC(=O)C[C@H](C)CCC=C(C)C)ccc1O`, the growth percent was 91.1% (NCI-H322M; SRB; 10 µM, 48 h).
`CCc1nnc(NS(=O)(=O)c2ccc(NC(=S)NC(=O)/C=C/c3ccc(F)cc3)cc2)s1` — result for neurosphere size: “decreased” (SK-N-AS; 10 µM, 7 days).
Under “concentration of maximal cytoprotection”, `C/C=C/C[C@@H](C)[C@@H](O)[C@H]1C(=O)N[C@@H](CC)C(=O)N(C)C(Cc2ccc(C(=O)NCCOCCNC(=O)CC[P+](c3ccccc3)(c3ccccc3)c3ccccc3)cc2)C(=O)N(C)[C@@H](CC(C)C)C(=O)N[C@@H](C(C)C)C(=O)N(C)[C@@H](CC(C)C)C(=O)N[C@@H](C)C(=O)N[C@H](C)C(=O)N(C)[C@@H](CC(C)C)C(=O)N(C)[C@@H](CC(C)C)C(=O)N(C)[C@@H](C(C)C)C(=O)N1C` (some centres unmarked) is recorded as 3 to 15 nM (rat cardiomyocytes; reoxygenation-induced necrosis; 3 h reoxygenation).
`CCCc1nn(C)c2c(=O)[nH]c(-c3cc(S(=O)(=O)N4CCN(C)CC4)ccc3OCC)nc12`: “minimum effective concentration” 100 µM (hiPSC cardiac tissues 3D; active force; 15 min per concentration, paced at 1 Hz serum-free).
`O=C1c2c(O)cc(O)cc2-c2c(-c3ccc(O)cc3)oc3cc(O)cc1c23` — result for “downregulated protein count”: 297 (LCC2 CHIP shRNA knockdown; label-free MS proteomics; 10 µM, 24 h).
`CC/C=C\C/C=C\C/C=C\C/C=C\C/C=C\C/C=C\CCC(=O)Nc1ccn(C2OC(CO)C(O)C2(F)F)c(=O)n1` (centres unmarked) has a GI50 of 1050 nM (KM12; cell growth or viability, SRB).
For `CCC(=C(c1ccc(Cl)cc1)c1ccc(OCCCN(C)C)cc1)c1ccc(OC)cc1`, “alkaline phosphatase activity” read 2.01 ± 0.55 (Ishikawa; 1 µM, 72 h, unit not given; relative to: DMSO).
For `COc1cc(CN2CCN(c3ccc(C)cc3)CC2)c2cc3[n+](cc2c1O)CCc1cc2c(cc1-3)OCO2`, the therapeutic index was 28.5 (Ca-Ski and MDCK; SRB; 48 h; relative to: CC50 MDCK over IC50 Ca-Ski).
With `N=C(N/N=C/c1ccccc1)N/N=C/c1ccccc1` the selectivity ratio was 0.8 (PANC-1; crystal violet; 72 h; relative to: IC50 IMR-90 over IC50 PANC-1).
For `O=C(N1CCCC1)n1cc(-c2ccc(-c3ccccc3)cc2)nn1`, the SILAC ratio was 0.94 ± 0.05 (mouse T-cells; N-terminal labeled proteins, N-terminal enrichment proteomics, refers to: LARP4; 1 nM, 6 h; relative to: DMSO).
With `COc1cccc(OCCN2CCC[C@H](CN3CCc4cc(OC)c(OC)cc4CC3=O)C2)c1` the inhibition was 90.6% (mouse VTA dopamine neurons; firing rate, cell-attached recording; 750 µM, 3 min).
The growth of `CC(=O)OC[C@H]1O[C@@H](Sc2sc(C(=O)c3ccc(Br)cc3)c(N)c2-c2nc3ccccc3s2)[C@H](OC(C)=O)[C@@H](OC(C)=O)[C@H]1OC(C)=O` is reported as 67.6% (CAKI-1; SRB; 10 µM, 48 h; relative to: untreated).
`CNC[C@H](O)c1cccc(O)c1`: “minimum effective concentration” 0.3 µM (hiPSC cardiac tissues 3D; active force; 15 min per concentration, paced at 1 Hz serum-free).
For `CCN(CC)C1CCN(Cc2cc(C#CCNC(=O)OC(C)(C)C)cc(I)c2O)CC1`, the onset concentration was 100 µM (NUGC-3 p53 Y220C; caspase 3/7 apoptosis; 6 h).
`COc1cc(CNC(=O)C[C@H](C)CCC=C(C)C)ccc1OCc1cn(-c2cccc([N+](=O)[O-])c2)nn1` gave a growth percent of 95.9% (SK-OV-3 ovarian cancer cells; SRB; 10 µM, 48 h).
With `COC(=O)CC[C@@H](NC(=O)[C@@H](Cc1ccc(OP(=O)(O)O)cc1)NC(=O)[C@@H](Cc1ccccc1)NC(=O)[C@@H](Cc1ccccc1)NC(=O)Cc1ccc2ccccc2c1)C(=O)OC` the viability was 23% (SAOS-2; MTT; 10 µM, added: TNAP inhibitor DQB 2 µM).
Under viability, `COCCNCC(=O)N(CCCCN)CC(=O)N(CC(=O)N(CC(=O)N(CCCCN)CC(=O)N[C@@H](CCCCN)C(=O)N[C@H](CCCCN)C(=O)N[C@@H](CCSC)C(=O)NCCCC[C@H](NC(=O)[C@H](CCSC)NC(=O)[C@@H](CCCCN)NC(=O)[C@H](CCCCN)NC(=O)CN(CCCCN)C(=O)CN(C(=O)CN(Cc1ccc2c(c1)OCO2)C(=O)CN(CCCCN)C(=O)CNCCOC)[C@H](C)c1ccccc1)C(N)=O)[C@H](C)c1ccccc1)Cc1ccc2c(c1)OCO2` is recorded as “no effect” (H358 ALDH− cells; MTS; concentration not given, 24 h).
With `FC(F)(F)c1ccnc(-c2cc(C(F)(F)F)ccn2)c1.FC(F)(F)c1ccnc(-c2cc(C(F)(F)F)ccn2)c1.[Cl-].[Cl-].[Ru+2].c1csc(-c2ccc(-c3ccc(-c4nc5c6cccnc6c6ncccc6c5[nH]4)s3)s2)c1` the EC50 was 300 to 870 nM (SK-MEL-28; cell viability, resazurin; visible light, hypoxia 1% O2).
For `COc1ccc(C2=NN(C3=NC(=O)C(=Cc4ccc(O)cc4)S3)C(c3ccc(F)cc3)C2)cc1` (centres unmarked), “cells in %S phase” read 30.7% (T47D; PI flow cytometry; concentration not given, 24 h).
For `COc1cc(CNC(=O)C[C@H](C)CCC=C(C)C)ccc1OCc1cn(-c2ccccc2F)nn1`, the growth percent was 68.2% (NCI-H23; SRB; 10 µM, 48 h).
`CCCCCCCCC/C=C/C=C/C(=O)N[C@H](C(=O)N[C@H]1C[C@@H](O)CCNC(=O)/C=C/[C@H](C)NC1=O)[C@@H](C)O` has an antiproliferative concentration of 0.25 µM (MDA-MB-361; trypan blue cell counting; 2 days).
Under “log2 fold change”, `O=Cc1c(O)ccc2ccccc12` is recorded as -2.99 (HUVEC; RNA sequencing, refers to: MCM6; 75 µM, 24 h; relative to: DMSO).
`COc1cc(CNC(=O)C[C@H](C)CCC=C(C)C)ccc1OCc1cn(-c2ccc(C#N)cc2)nn1` has a growth percent of 82.4% (SK-OV-3 ovarian cancer cells; SRB; 10 µM, 48 h).
With `COc1ccc2c(c1)/C(=N\Nc1nnc3n1N=C(c1ccccc1)CS3)C(=O)N2` the inhibition was 35% (UACC-257; cell growth or viability, SRB; 10 µM).
`COc1ccc(C(=O)n2c(C)c(Cc3ccccc3O[C@@H](C)C(=O)O)c3cc(OC(F)(F)F)ccc32)cc1`: mRNA level “increased” (3T3-L1 preadipocytes; qRT-PCR, refers to: adiponectin; concentration not given).
`Cc1c(C(=O)Nc2ccn(C)n2)ncn1Cc1cccc(C(F)(F)F)c1` — result for “cytosolic to membrane αS ratio”: “increased” (M17D expressing αS E46K; sequential extraction, western blot; 10 µM, 48 h, TBS vs Triton X-100 soluble).
For `COc1ccc([C@@H]2CC(=O)c3c(O)cc(O[C@@H]4O[C@H](CO[C@@H]5O[C@@H](C)[C@H](O)[C@@H](O)[C@H]5O)[C@@H](O)[C@H](O)[C@H]4O)cc3O2)cc1O`, the cell count was 19200 ± 523 (MRC5; trypan blue exclusion; 100 µg/mL, 72 h).
Under “cells in S phase”, `C=C(C)[C@@H]1CC[C@]2(C(=O)OCO/N=[N+](\[O-])N3CCCC3)CC[C@]3(C)[C@H](CC[C@@H]4[C@@]5(C)CC[C@H](OC(C)=O)C(C)(C)[C@@H]5CC[C@]43C)[C@@H]12` is recorded as 43.8% (B16-F10; PI flow cytometry; 0.50 µM).
For `O=C1NC(=O)C(=Cc2ccc(-c3cccc(C(F)(F)F)c3)o2)S1`, “NADH level increase” read 82% (activated PBMC; 1 µM, 0.5 h).
For `COc1cc(CNC(=O)C[C@H](C)CCC=C(C)C)ccc1OCc1cn(-c2ccc([N+](=O)[O-])cc2)nn1`, the growth percent was 70.7% (SN12C; SRB; 10 µM, 48 h).

Some of these lines once more:
With `COc1cccc(OCCN2CCC[C@H](CN3CCc4cc(OC)c(OC)cc4CC3=O)C2)c1` the inhibition was 90.6% (mouse VTA dopamine neurons; firing rate, cell-attached recording; 750 µM, 3 min).
`CCc1nnc(NS(=O)(=O)c2ccc(NC(=S)NC(=O)/C=C/c3ccc(F)cc3)cc2)s1` — result for neurosphere size: “decreased” (SK-N-AS; 10 µM, 7 days).
`CC/C=C\C/C=C\C/C=C\C/C=C\C/C=C\C/C=C\CCC(=O)Nc1ccn(C2OC(CO)C(O)C2(F)F)c(=O)n1` (centres unmarked) has a GI50 of 1050 nM (KM12; cell growth or viability, SRB).
`CO[C@H]1N(OC)c2ccccc2[C@@]12CN=C(Nc1cc(C(F)(F)F)cc(C(F)(F)F)c1)S2` (relative stereo): “G2/M phase cells” 6.22 ± 1.45% (HCT-116; PI flow cytometry; 40 µM, 48 h).
